Experimental data from different studies.
Numbered parts are unrelated; each lists some results of a single study. Changes are numbered by the printed parent chain.

Block 1
Target: Histone acetyltransferase KAT6A, both winged helices, GST fusion (KAT6A, Homo sapiens, UniProt Q92794, residues 1-181)
Technique: protein binding microarray
Form: double-stranded DNA, one strand shown
Medium: in vitro
Tested at: not given
Setting: 8-mer, flanks averaged, mean of 2 arrays, mostly near background
Relative to: not given
Reading: higher = stronger binding
Target sequence (chain): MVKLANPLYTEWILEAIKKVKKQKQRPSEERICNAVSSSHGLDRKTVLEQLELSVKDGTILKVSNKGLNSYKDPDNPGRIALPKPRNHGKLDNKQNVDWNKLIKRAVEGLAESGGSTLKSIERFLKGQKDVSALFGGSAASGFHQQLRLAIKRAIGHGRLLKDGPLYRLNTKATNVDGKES
Sequence	E-score
ATATTACC	0.0398
CCTGTTCG	-0.0578
CTGGGCCA	-0.211
AGTCGCTC	-0.0667
CGACCACA	-0.117

Block 2
Target: Interferon regulatory factor 7, full length, phosphomimetic (IRF7, Homo sapiens, UniProt Q92985, residues 1-503, S471D/S472D/S475D/S476D/S477D/S483D/S484D/S487D)
Technique: protein-binding microarray
Form: double-stranded DNA, one strand shown
Medium: in vitro
Tested at: 2200 nM top
Setting: 60-bp whole probe
Together with: salmon DNA 0.4 mg/ml
Relative to: random background probes
Reading: higher = stronger binding
Residues (chain): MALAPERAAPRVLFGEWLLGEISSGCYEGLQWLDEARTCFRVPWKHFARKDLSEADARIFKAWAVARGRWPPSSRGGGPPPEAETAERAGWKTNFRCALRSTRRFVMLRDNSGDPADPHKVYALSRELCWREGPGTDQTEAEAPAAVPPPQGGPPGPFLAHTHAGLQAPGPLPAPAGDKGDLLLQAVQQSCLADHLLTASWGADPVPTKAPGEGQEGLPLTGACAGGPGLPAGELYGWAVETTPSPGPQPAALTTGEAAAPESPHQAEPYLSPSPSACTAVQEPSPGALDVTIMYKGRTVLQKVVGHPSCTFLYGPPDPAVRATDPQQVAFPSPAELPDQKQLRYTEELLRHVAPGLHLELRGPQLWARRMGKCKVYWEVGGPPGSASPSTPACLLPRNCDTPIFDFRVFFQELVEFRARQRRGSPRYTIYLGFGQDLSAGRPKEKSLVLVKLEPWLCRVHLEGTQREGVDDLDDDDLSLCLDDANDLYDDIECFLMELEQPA
Sequence	fitted relative affinity [z-score]
GCCTAGCACTCACATATACACTGTGTAACTGTGCTAGTCTTGATTCGCTTGACGCTGCTG	0.929
GCCTAGCACGACGGTTTCCTACTGCTGAGGTGCTAGGTCTTGATTCGCTTGACGCTGCTG	1.74
GCCTAGCACATAGATTTCAGTATCGATTAGTGCTAGGTCTTGATTCGCTTGACGCTGCTG	0.999
GCCTAGCACTTAGCACTGAGTCTCGATTAGTGCTAGGTCTTGATTCGCTTGACGCTGCTG	-0.207

Block 3
Target: CCNB2, cyclin fold, Cln2 fusion (human)
Technique: yeast growth competition, sequencing
Medium: yeast
Setting: weak parent motif
Relative to: not given
Reading: higher = stronger binding
Parent: MASTL docking peptide (human); PMIAKNLMCELDE; partner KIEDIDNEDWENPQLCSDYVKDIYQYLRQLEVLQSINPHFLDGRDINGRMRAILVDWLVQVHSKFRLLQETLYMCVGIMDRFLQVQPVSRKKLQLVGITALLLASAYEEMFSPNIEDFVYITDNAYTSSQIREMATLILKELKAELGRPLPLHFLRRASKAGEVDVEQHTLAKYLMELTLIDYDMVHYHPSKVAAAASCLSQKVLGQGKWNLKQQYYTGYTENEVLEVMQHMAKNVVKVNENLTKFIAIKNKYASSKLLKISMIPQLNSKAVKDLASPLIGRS
Substitution	normalised enrichment score
PMIAKNLMCELME [D12M]	0.854
PVIAKNLMCELDE [M2V]	0.91
PMIHKNLMCELDE [A4H]	-0.0149
PPIAKNLMCELDE [M2P]	0.844

Single results of other studies
Substance	target	test	system	setting	how to read	endpoint	result
PhoQ, residues 284 288 289 292 302 303 TGYLSA	PhoP, residues 12 14 15 18 19 SQCLL (Escherichia coli, UniProt P23836)	Sort-seq, measured: YFP reporter	E. coli	PhoQ-PhoP variant library, together with: 10 µM Mg2+	relative to: high Mg2+ state, higher = stronger signaling	fold induction	2.1

Excerpt of the above (block 1):
Sequence	E-score
CCTGTTCG	-0.0578
